Published values collected from several papers.
Protocols differ between the studies behind these lines.

`Cc1ncnc2c1ccn2[C@@H]1C[C@H](Oc2cc(C(F)F)c(F)c3c2CNCC3)[C@@H](O)[C@H]1O` gave an AUC(0-tau) of 45.5 ng·h/mL (human; oral, 0.5 mg twice daily).
Under “AUC(0-tau) cycle 1”, `COc1cc(C(=O)NC2CCN(C)CC2)c(F)cc1Nc1ncc(C(F)(F)F)c(Oc2cccc3c2C(=O)N(C)C3)n1` is recorded as 16.7 µM·h (human, Japanese, plasma; oral, 200 mg single dose, geometric mean).
`CC(C)NC(=O)COc1cccc(-c2nc(Nc3ccc4[nH]ncc4c3)c3ccccc3n2)c1` gave an AUC(0-tau) of 9710 ng·h/mL (human male, plasma; oral, 200 mg, day 6, fed, alone, geometric mean).
For `Cc1noc(C)c1-c1cc(C(O)(c2ccccn2)c2ccccn2)c2nc(C3CC3)[nH]c2c1`, the AUC(0-tau) was 7220 ng·h/mL (human, fasted, plasma; oral, 9 mg once daily, cycle 1 day 8).
`CCOc1c([C@H](C)n2nc(C)c3c(N)ncnc32)cc(Cl)c(F)c1[C@@H]1CNC(=O)C1` has an AUC(0-tau) of 27.8 µM·h (human, DLBCL, plasma; oral, 30 mg, day 15, geometric mean).
For `O=C(O)CCC(=O)O.[2H]C([2H])([2H])Oc1cc(C)c2[nH]ccc2c1CN1CC[C@@H](C2CC2)C[C@H]1c1ccc(C(=O)O)cc1`, the AUC(0-tau) was 44200 ng·h/mL (human, plasma; 125 mg twice daily, day 10, multiple ascending dose, geometric mean).
`CCCCOCCOc1ccc(-c2ccc3c(c2)/C=C(/C(=O)Nc2ccc([S@@+]([O-])Cc4cncn4CCC)cc2)CCCN3CC(C)C)cc1` has an AUC(0-tau) of 3980 ng·h/mL (human, moderate impairment matched controls, plasma; oral, 150 mg, day 1, geometric mean).
`CCN1CCN(Cc2ccc(Nc3ncc(F)c(-c4cc(F)c5nc6n(c5c4)[C@H](C)CCC6)n3)nc2)CC1` gave an AUC(0-tau) of 1710 ng·h/mL (human, plasma; 50 mg multiple dosing, mean).

For quick reference, copied from above:
`Cc1ncnc2c1ccn2[C@@H]1C[C@H](Oc2cc(C(F)F)c(F)c3c2CNCC3)[C@@H](O)[C@H]1O` gave an AUC(0-tau) of 45.5 ng·h/mL (human; oral, 0.5 mg twice daily).
